Results of several laboratories.
Numbered parts are unrelated; each lists some results of a single study. Positions count from the first letter of the parent shown.

Block 1 — target: CCND3, cyclin fold, Cln2 fusion (human); technique: yeast growth competition, sequencing; matrix: yeast; notes: weak parent motif; baseline: not given; direction: higher = stronger binding
Parent: GMNC docking peptide (human); KNAKRNLSSEFAN; partner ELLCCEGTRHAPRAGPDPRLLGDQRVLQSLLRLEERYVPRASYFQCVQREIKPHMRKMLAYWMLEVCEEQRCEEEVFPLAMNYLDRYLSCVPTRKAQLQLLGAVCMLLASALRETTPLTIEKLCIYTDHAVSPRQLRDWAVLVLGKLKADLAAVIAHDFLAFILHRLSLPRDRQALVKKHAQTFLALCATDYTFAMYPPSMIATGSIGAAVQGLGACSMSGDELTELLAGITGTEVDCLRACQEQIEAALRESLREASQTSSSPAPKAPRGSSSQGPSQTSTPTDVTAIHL
| Change | normalised enrichment score |
| --- | --- |
| L7H | 0.439 |
| A12S | 0.0981 |
| N2E | 0.436 |
| F11E | 0.049 |
| A12R | 0.244 |
| E10R | 0.501 |
| A3T | 0.471 |
| R5P | -0.262 |
| R5W | 0.2 |
| S9D | 0.358 |
| K4T | -0.0309 |
| A12L | 0.123 |
| K4H | -0.0523 |
| A12T | 0.123 |
| S8A | 0.076 |
| R5K | 0.194 |
| F11H | 0.129 |
| E10C | 0.285 |
| A3K | 0.53 |
| N2V | 0.0372 |
| S8R | 0.195 |

Block 2 — technique: protein binding microarray; molecule type: double-stranded DNA, one strand shown; matrix: in vitro; tested at: not given; baseline: not given; direction: higher = stronger binding
Target: Histone acetyltransferase KAT6A, both winged helices, GST fusion (KAT6A, Homo sapiens, UniProt Q92794, residues 1-181)
Notes: 8-mer, flanks averaged, mean of 2 arrays, mostly near background
Construct (chain): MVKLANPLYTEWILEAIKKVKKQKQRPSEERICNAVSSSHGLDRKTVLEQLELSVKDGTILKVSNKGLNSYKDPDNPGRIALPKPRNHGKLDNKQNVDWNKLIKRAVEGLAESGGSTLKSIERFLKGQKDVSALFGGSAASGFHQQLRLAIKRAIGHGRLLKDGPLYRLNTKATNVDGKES
| Sequence | E-score |
| --- | --- |
| AGTGGCTC | -0.105 |
| GGCCACAC | -0.0385 |
| GACTGATA | -0.208 |
| AGCAAGGG | -0.17 |
| CACCGCGC | 0.382 |
| CCCTGTTA | -0.108 |
| ACTGTATC | -0.0518 |
| AACGTCAG | -0.11 |
| CCCAAGTC | -0.115 |
| AGGTTGGC | -0.193 |
| CCTAATCG | -0.126 |
| CTATACTA | 0.0118 |
| ACCTAAAG | -0.16 |
| CAATACGG | 0.16 |
| CCTGGGCC | -0.137 |
| CACTCCAG | -0.134 |
| CCCCGGAC | 0.0814 |

Block 3 — technique: protein-binding microarray; molecule type: double-stranded DNA, one strand shown; matrix: in vitro; tested at: 940 nM top; notes: 60-bp whole probe; with: salmon DNA 0.4 mg/ml; baseline: random background probes; direction: higher = stronger binding; all sequences stand within: GCCTAGCAC … GTCTTGATTCGCTTGACGCTGCTG
Target: Interferon regulatory factor 5, full length, phosphomimetic (IRF5, Homo sapiens, UniProt Q13568-2, residues 1-514, S451D/S453D/S456D/S462D)
| Sequence | fitted relative affinity [z-score] |
| --- | --- |
| TTTTTTTTTTTTTACTTCGGGTGCTAG | 0.886 |
| TCATCCTTCTGACATCAAACTGTGCTA | 0.705 |
| TTAGATCTGAGTCTCGATTAGTGCTAG | 2.58 |
| ATAGATATCAGTCTCGATTAGTGCTAG | 2.8 |
| GACGATTCCACTTTCGAGACGTGCTAG | 2.32 |
| TTAGAACTGAGACTGAATTAGTGCTAG | 0.0148 |
| TTAGGACTGGAAACTGGGTTAGTGCTA | -0.544 |
| TCATTTTGCTTTCTTTAACTGTGCTAG | 2.1 |
| TCAATTATATATATCATACTGTGCTAG | 0.334 |
| TTAGGTATCGGGCATCGGTTAGTGCTA | 4.37 |
| TTAGGTCTACTTATCCTTTAGTGCTAG | 0.139 |
| GACGATATCGGGCATCGAGACGTGCTA | -0.138 |
| GAACATACTAGTTTCCATTTGTGCTAG | 0.93 |
| GACGGTATCCTACTGCTGAAGTGCTAG | -0.148 |
| TCATCTCACGCATCTGAAACTGTGCTA | 0.696 |
| TTAGGTTTCGGTTCCGGTAAGTGCTAG | 15.5 |
| TTTTTTTTTTTTTTTTGTATGTGCTAG | 1.69 |
| GACGGTCTCCTTATGCTGACGTGCTAG | 0.196 |
| TTAGAACTGCGGTATCGATTAGTGCTA | 2.86 |
| GACGAGTTCGGGTATCGAGACGTGCTA | 0.96 |
| TTAGATTTCAGTTTGGATTAGTGCTAG | 0.657 |
| GACGGTTTAGGACTGGGGACGTGCTAG | 0.12 |
| TCATTTTCATTTTTTTTACTGTGCTAG | 2.47 |
| TTAGGACTGGGTTTCGGGTAGTGCTAG | 3.91 |

Block 4 — technique: RNA Bind-n-Seq; molecule type: RNA; matrix: in vitro; tested at: 365 nM; baseline: no-protein control; direction: higher = stronger binding
Target: RNA binding protein fox-1 homolog 2, RRM domain, GST-SBP tag (RBFOX2, Homo sapiens, UniProt O43251-10, residues 100-194)
Notes: natural RNA segment, single round, ends assumed
All sequences stand within: GGGAGUUCUACAGUCCGACGAUC … UGGAAUUCUCGGGUGCCAA
Construct (chain): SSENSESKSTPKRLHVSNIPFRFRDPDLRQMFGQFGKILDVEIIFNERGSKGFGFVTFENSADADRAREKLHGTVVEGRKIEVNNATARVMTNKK
| Sequence | RBNS enrichment (R) |
| --- | --- |
| UUUCACUGUUGAUUUUACUUUAAGAUGUAGCCAGAGAAAGUUUUGUUUUUAAGGCAUUUUAAAGCUGUAGCAGGCGUAUGCUUCAUUUUCUUCCAAAGAGGCAAAAGCAG | 0.513 |
| UCUCAGGCCCUGCUCACUCCCGGGGCCACCAAACGGGCCCCUCUCUCGGGGGAACCGGACAGCAGCUUGGCAAAGGCCUCCCUAAAAGGCCGCAUUUCUGACCUGAGCCC | 0.404 |
| UGAUAUGCAGAAGUCACUUUUUUUAUCAGGCUUUAUUCUCCUUACAAAGCCACAGUUUAACUGUCUGCAACAGUUGGUUUAUGUUAAUGAUAGACAAAUACCCAGUGUUU | 0.724 |
| UGUAUUUCAGUGCCUCCAGCUUUGCACUUGAGAGACAAGUGUUUACUGCUGUUUGACUUUCCCCUUGACAUUUCUCAGAAAAAUGCAGGGCUGCAGCUGAGAGCAGACUG | 0.504 |
| CUAUUCCAGCACUGGUUUUGAAUGCUGUAUGCAACCAGUCUGAAUACCACAUACGCUGCACUGUUCUUAGAGGGUUUCCAUACUUACCACCGAUCUACAAGGGUUGAUCC | 16.6 |
| AAUAAAUAUUCCCAUAAUUUAGAAAAGGAUGUCGACUUGCUAAUUUCAGAAAUAAUUAUUCAUUUUUAAAAAGCCCCUUUUAAAGCAUCUACUUGAAGAUUGGUAUAAUU | 1.19 |
| AGCAGUUUGCUCUGUGCGUCCACGGCCUAGGUGUUUCUUGGGGGUGUUGGGAGGGCAGGAGCAUUCCUUGAGGAGGAGUGGCAACAUCAAAGUGUUUGUGUCCCUUGCCA | 0.364 |
| AGGCUUCUGCUCUCCUCAAAGCCAUACCCCCGCCUUUGGGCGGGCAUAGAGGGGUAGUGGAUGCUAGCCAGCAGCACGGAAAGAGCCUUUUUCUAAAGAAAAAGACAAAA | 0.31 |
| CGCUUACUAGAUGUGAGGAGAGUCUGAAUAUUUUCAGUGAUCUUGGCUGUUUCAAAAAAAUCUAUUGACUUUUCAAUAAAUCAGCUGCAAUCCAUUUAUUUCAUUUACAA | 0.324 |
| CCCCUCUCCAAAGUGAGCAGGCAGGUUUUAAACAGCUUAACUACUGACCAGUUAUAAGACUCGCUUUUCAGUCAUGGAUCCUGCAGAAAUCUGAGACCCACCCAUAUCCU | 0.234 |
| ACAAACUUCAAGAUUAUUUAAGUGAAGAUAUUUCUUCAGCUCUGGGGAAAAUGCCACAGUGUUCUCCUGAGAGAACAUCCUUGCUUUGAGUCAGGCUGUGGGCAAGUUCC | 0.311 |
| GCUGUUUCUUUUAAAUCCUCUGUGCACAGGGCUCUGGCCUUUAGUAAACUGUUUUUCUGUCUUACGUCAUGCUGACUGGGUGCUAGGGGCUGAUUACAAAGGGGAAGAGU | 0.621 |

Block 5 — technique: aptamer microarray, sandwich; molecule type: DNA with 2'F-ANA; matrix: in vitro; tested at: 200 nM; with: Cy3 exosite-II aptamer, 400 nM; direction: higher = stronger binding; sequence: GGTTGGTGTGGTTGG
Target: Prothrombin, mature alpha-thrombin (F2, Homo sapiens, UniProt P00734)
Notes: whole 15-mer aptamer, many near background
| Modification | mean fluorescence intensity [a.u.] |
| --- | --- |
| 2'F-ANA at 1 3 5 6 9 11 | 52 |
| 2'F-ANA at 2 3 5 6 8 10 11 15 | 52.7 |
| 2'F-ANA at 1 4 5 6 8 10 | 53.8 |
| 2'F-ANA at 6 7 9 10 14 | 110 |
| 2'F-ANA at 1 2 4 5 8 9 10 11 12 15 | 53.7 |
| 2'F-ANA at 1 5 6 7 10 11 13 14 15 | 50.1 |
| 2'F-ANA at 2 3 4 6 7 8 9 11 13 15 | 356 |
| 2'F-ANA at 2 3 4 5 6 7 9 10 11 12 | 59.8 |
| 2'F-ANA at 3 7 11 12 14 15 | 824 |
| 2'F-ANA at 3 6 7 8 9 14 | 527 |
| 2'F-ANA at 2 4 5 7 12 13 14 | 45.6 |
| 2'F-ANA at 2 4 8 10 11 12 13 14 | 62.5 |
| 2'F-ANA at 1 3 4 5 6 7 8 12 13 15 | 80.5 |
| 2'F-ANA at 3 4 6 7 12 14 | 348 |
| 2'F-ANA at 4 5 7 9 11 12 14 | 49.8 |
| 2'F-ANA at 2 3 5 6 7 8 11 12 13 14 | 57 |
| 2'F-ANA at 4 5 6 7 8 10 11 13 14 | 45.9 |

Block 6 — technique: universal PBM; molecule type: double-stranded DNA, one strand shown; matrix: in vitro; tested at: 600 nM; direction: higher = stronger binding
Target: Sal-like protein 4, full length isoform A (SALL4, Homo sapiens, UniProt Q9UJQ4, residues 1-1053)
Chain of UniProt Q9UJQ4 (whole entry, looked up): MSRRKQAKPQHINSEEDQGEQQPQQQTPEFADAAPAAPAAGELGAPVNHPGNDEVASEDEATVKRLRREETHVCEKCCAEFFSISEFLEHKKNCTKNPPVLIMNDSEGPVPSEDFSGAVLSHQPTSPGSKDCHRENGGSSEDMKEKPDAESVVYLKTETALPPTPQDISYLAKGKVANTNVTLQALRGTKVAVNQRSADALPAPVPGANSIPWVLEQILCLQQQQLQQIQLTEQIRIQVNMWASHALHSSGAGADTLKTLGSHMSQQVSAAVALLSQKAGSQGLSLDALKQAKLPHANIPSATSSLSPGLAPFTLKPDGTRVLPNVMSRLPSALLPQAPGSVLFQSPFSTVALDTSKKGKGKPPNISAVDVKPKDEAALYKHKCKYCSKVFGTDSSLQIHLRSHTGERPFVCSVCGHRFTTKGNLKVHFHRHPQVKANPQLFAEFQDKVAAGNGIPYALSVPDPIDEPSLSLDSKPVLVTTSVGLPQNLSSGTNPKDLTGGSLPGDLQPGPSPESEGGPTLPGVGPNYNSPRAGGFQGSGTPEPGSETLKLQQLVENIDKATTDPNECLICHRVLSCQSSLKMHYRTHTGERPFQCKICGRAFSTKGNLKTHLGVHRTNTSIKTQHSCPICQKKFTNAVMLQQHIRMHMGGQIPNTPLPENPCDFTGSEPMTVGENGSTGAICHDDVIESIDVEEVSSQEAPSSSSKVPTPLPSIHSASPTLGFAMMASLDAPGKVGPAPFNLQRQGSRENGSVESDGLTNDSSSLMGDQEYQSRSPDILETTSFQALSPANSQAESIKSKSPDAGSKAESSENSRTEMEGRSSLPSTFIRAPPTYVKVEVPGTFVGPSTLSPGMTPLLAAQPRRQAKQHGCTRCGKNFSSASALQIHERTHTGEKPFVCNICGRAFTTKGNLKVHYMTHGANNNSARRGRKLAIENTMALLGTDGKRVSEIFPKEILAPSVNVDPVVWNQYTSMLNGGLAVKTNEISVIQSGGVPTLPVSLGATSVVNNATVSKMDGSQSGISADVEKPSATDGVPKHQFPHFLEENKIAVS
Notes: 8-mer, flanks averaged, mean of replicates
| Sequence | E-score |
| --- | --- |
| AGCCAAGA | 0.0993 |
| AAGCCGTC | -0.165 |
| CTGCTAAG | -0.124 |
| CATTCGGA | 0.013 |
| CACCGTGC | -0.159 |
| GGACTGAA | 0.0182 |
| GCATCATA | 0.299 |
| CCTTTGAA | 0.0361 |
| CTTGTAGC | 0.0403 |
| AGTAACCG | -0.0596 |
| AACCTTGC | -0.11 |

Some of these lines once more (block 3):
| Sequence | fitted relative affinity [z-score] |
| --- | --- |
| GACGGTATCCTACTGCTGAAGTGCTAG | -0.148 |
| TCATCTCACGCATCTGAAACTGTGCTA | 0.696 |
| TTAGGTTTCGGTTCCGGTAAGTGCTAG | 15.5 |
| TTTTTTTTTTTTTTTTGTATGTGCTAG | 1.69 |
| GACGGTCTCCTTATGCTGACGTGCTAG | 0.196 |
| TTAGAACTGCGGTATCGATTAGTGCTA | 2.86 |
| GACGAGTTCGGGTATCGAGACGTGCTA | 0.96 |
| TTAGATTTCAGTTTGGATTAGTGCTAG | 0.657 |
| GACGGTTTAGGACTGGGGACGTGCTAG | 0.12 |
| TCATTTTCATTTTTTTTACTGTGCTAG | 2.47 |
